Measurements of several laboratories.
Protocols differ between the studies behind these lines. “And” joins repeats or separate records; there may be more than shown. Numbers after ± are the reported error.
Cell line: HepG2

Structure (SMILES) | test | system | conditions | scale | endpoint | result
CC1=C(O)C(=O)C=C2C1=CC=C1[C@@]2(C)CC[C@@]2(C)[C@@H]3C[C@](C)(C(=O)O)CC[C@]3(C)CC[C@]12C | cell viability, CCK-8 | – | 5 µM | higher = more viable cells | optical density | 0.176 a.u. and 0.232 a.u. and 0.205 a.u. and 0.2 a.u. and 0.204 a.u. and 0.256 a.u.
NC(=O)c1nc(F)c[nH]c1=O | refers to: succinate dehydrogenase subunit A | – | 120 h | – | IC50 | > 400 µM
COc1cccc2c1C(=O)c1c(O)c3c(c(O)c1C2=O)C[C@@](O)(C(=O)CO)C[C@@H]3O[C@H]1C[C@H](N)[C@H](O)[C@H](C)O1 | SRB | – | 10 µg/mL, 48 h | negative values mean cell killing | growth percent | -39.1%
NC(=O)c1ncn([C@@H]2O[C@H](CO)[C@@H](O)[C@H]2O)n1 | cell growth | – | 120 h | – | IC50 | > 400 µM
COc1ccc(-n2nc(C(C)=O)s/c2=N\N=C(/C)c2ccc(NC(C)=O)cc2)cc1 | – | – | 0.078 µM | – | toxicity | 9.04%
COc1c(C)c2c(c(O)c1C/C=C(\C)CCC(=O)O)C(=O)OC2 | cell proliferation | liver cancer | – | – | IC50 | 0.513 µM
O=C(N[C@H](CO)[C@H](O)c1ccc([N+](=O)[O-])cc1)C(Cl)Cl | refers to: succinate dehydrogenase subunit A | – | 120 h | – | IC50 | > 100 µM
COc1ccc(-c2cc(C(F)(F)F)c3c(N)c(C(=O)N4CCCCC4)sc3n2)cc1 | cell growth | – | concentration not given, 72 h | – | IC50 | not toxic
CC(C)=CCC[C@](C)(O)[C@H]1CC[C@]2(C)[C@@H]1[C@H](O)C[C@@H]1[C@@]3(C)CC[C@H](O)C(C)(C)[C@@H]3[C@@H](O[C@@H]3O[C@H](CO)[C@@H](O)[C@H](O)[C@H]3O)C[C@]12C | cell viability, CCK-8 | – | 10 µM | higher = more viable cells | optical density | 1.3 a.u. and 1.47 a.u. and 1.31 a.u. and 1.22 a.u. and 1.43 a.u. and 1.27 a.u.
[131I-].[Na+] | – | – | 16000 kBq/mL, 24 h | – | viability | 78.5 ± 9.9%

For quick reference, copied from above:
Structure (SMILES) | test | system | conditions | scale | endpoint | result
O=C(N[C@H](CO)[C@H](O)c1ccc([N+](=O)[O-])cc1)C(Cl)Cl | refers to: succinate dehydrogenase subunit A | – | 120 h | – | IC50 | > 100 µM
COc1cccc2c1C(=O)c1c(O)c3c(c(O)c1C2=O)C[C@@](O)(C(=O)CO)C[C@@H]3O[C@H]1C[C@H](N)[C@H](O)[C@H](C)O1 | SRB | – | 10 µg/mL, 48 h | negative values mean cell killing | growth percent | -39.1%
